# Measurements pooled from the literature.
# Protocols differ between the studies behind these lines.
# POL1: POL1 (Saccharomyces cerevisiae, UniProt P13382)
# UniProt P13382, sequence (whole entry, looked up): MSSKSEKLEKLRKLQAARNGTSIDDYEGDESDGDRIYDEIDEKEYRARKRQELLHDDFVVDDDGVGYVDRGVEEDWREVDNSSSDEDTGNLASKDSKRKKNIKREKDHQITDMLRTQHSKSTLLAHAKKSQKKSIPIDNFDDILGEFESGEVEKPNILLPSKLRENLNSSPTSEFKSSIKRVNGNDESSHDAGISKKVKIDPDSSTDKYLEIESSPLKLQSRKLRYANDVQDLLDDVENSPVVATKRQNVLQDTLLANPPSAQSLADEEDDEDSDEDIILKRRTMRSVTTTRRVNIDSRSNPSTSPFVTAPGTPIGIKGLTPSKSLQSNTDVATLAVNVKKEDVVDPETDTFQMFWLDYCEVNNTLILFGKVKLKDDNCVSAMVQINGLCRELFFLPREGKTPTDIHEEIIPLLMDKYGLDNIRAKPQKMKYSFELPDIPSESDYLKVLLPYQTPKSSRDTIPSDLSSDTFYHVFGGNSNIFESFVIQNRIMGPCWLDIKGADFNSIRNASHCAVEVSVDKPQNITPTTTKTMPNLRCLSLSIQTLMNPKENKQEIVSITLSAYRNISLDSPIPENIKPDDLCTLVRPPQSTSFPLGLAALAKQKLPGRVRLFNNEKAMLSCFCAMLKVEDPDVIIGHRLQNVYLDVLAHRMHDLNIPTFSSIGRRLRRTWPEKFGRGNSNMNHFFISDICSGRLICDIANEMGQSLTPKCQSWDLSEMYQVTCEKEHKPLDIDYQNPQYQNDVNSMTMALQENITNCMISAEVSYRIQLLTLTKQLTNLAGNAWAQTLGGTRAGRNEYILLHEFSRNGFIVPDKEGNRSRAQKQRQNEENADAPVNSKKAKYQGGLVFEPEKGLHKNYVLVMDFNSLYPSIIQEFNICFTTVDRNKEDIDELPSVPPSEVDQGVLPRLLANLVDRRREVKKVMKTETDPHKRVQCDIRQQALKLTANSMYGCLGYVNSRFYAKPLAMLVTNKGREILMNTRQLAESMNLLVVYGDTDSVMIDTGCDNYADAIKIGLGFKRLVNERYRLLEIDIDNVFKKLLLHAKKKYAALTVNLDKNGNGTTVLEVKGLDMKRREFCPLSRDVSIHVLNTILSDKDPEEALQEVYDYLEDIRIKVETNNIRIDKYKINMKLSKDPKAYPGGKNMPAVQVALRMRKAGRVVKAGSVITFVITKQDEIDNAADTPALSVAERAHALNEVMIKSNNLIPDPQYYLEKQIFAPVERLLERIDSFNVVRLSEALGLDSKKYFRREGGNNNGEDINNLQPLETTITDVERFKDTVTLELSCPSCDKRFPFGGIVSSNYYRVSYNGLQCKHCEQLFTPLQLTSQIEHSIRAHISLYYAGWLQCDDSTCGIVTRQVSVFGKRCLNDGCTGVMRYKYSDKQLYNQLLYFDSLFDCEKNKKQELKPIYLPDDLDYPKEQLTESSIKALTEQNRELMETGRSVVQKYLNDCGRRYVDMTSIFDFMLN
# T1: CREB1 160-280 (Rattus norvegicus); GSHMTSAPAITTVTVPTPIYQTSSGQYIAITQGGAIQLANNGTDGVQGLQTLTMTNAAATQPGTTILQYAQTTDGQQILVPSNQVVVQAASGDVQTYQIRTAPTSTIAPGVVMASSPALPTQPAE
# B1: PduE (Salmonella enterica, UniProt O31042); sequence looked up; chain MNTDAIESMVRDVLSRMNSLQGDAPAAAPAAGGTSRSAKVSDYPLANKHPEWVKTATNKTLDDFTLENVLSNKVTAQDMRITPETLRLQASIAKDAGRDRLAMNFERAAELTAVPDDRILEIYNALRPYRSTKEELLAIADDLENRYQAKICAAFVREAAGLYVERKKLKGDD
# B2: capsid protein residues 15-end 15-324 (Staphylococcus phage 80alpha, UniProt A4ZFB3); sequence looked up; chain ASNNVKPQVFNPDNVMMHEKKDGTLMNEFTTPILQEVMENSKIMQLGKYEPMEGTEKKFTFWADKPGAYWVGEGQKIETSKATWVNATMRAFKLGVILPVTKEFLNYTYSQFFEEMKPMIAEAFYKKFDEAGILNQGNNPFGKSIAQSIEKTNKVIKGDFTQDNIIDLEALLEDDELEANAFISKTQNRSLLRKIVDPETKERIYDRNSDSLDGLPVVNLKSSNLKRGELITGDFDKLIYGIPQLIEYKIDETAQLSTVKNEDGTPVNLFEQDMVALRATMHVALHIADDKAFAKLVPADKRTDSVPGEV
# B3: CCDC22 280-446 (Homo sapiens, UniProt O60826); chain GAGAKTGAPKGSRFTHSEKFTFHLEPQAQATQVSDVPATSRRPEQVTWAAQEQELESLREQLEGVNRSIEEVEADMKTLGVSFVQAESECRHSKLSTAEREQALRLKSRAVELLPDGTANLAKLQLVVENSAQRVIHLAGQWEKHRVPLLAEYRHLRKLQDCRELES
# B4: SKI7 1-235 (Saccharomyces cerevisiae, UniProt Q08491); sequence looked up; chain MSLLEQLARKRIEKSKGLLSADQSHSTSKSASLLERLHKNRETKDNNAETKRKDLKTLLAKDKVKRSDFTPNQHSVSLSLKLSALKKSNSDLEKQGKSVTLDSKENELPTKRKSPDDKLNLEESWKAIKEMNHYCFLKNDPCINQTDDFAFTNFIIKDKKNSLSTSIPLSSQNSSFLSLKKHNNELLGIFVPCNLPKTTRKVAIENFNRPSPDDIIQSAQLNAFNEKLENLNIKS
# B5: nlpI (Escherichia coli, UniProt P0AFB1); sequence looked up; chain CSNTSWRKSEVLAVPLQPTLQQEVILARMEQILASRALTDDERAQLLYERGVLYDSLGLRALARNDFSQALAIRPDMPEVFNYLGIYLTQAGNFDAAYEAFDSVLELDPTYNYAHLNRGIALYYGGRDKLAQDDLLAFYQDDPNDPFRSLWLYLAEQKLDEKQAKEVLKQHFEKSDKEQWGWNIVEFYLGNISEQTLMERLKADATDNTSLAEHLSETNFYLGKYYLSLGDLDSATALFKLAVANNVHNFVEHRYALLELSLLGQDQDDLAESDQQ
# B6: Pri1 (Saccharomyces cerevisiae, UniProt P10363); sequence looked up; chain MTNSVKTNGPSSSDMEYYYKSLYPFKHIFNWLNHSPKPSRDMINREFAMAFRSGAYKRYNSFNSVQDFKAQIEKANPDRFEIGAIYNKPPRERDTLLKSELKALEKELVFDIDMDDYDAFRTCCSGAQVCSKCWKFISLAMKITNTALREDFGYKDFIWVFSGRRGAHCWVSDKRARALTDVQRRNVLDYVNVIRDRNTDKRLALKRPYHPHLARSLEQLKPFFVSIMLEEQNPWEDDQHAIQTLLPALYDKQLIDSLKKYWLDNPRRSSKEKWNDIDQIATSLFKGPKQDSHIIKLRECKEDLVLMTLYPKLDVEVTKQTIHLLKAPFCIHPATGNVCVPIDESFAPEKAPKLIDLQTEMEKNNDVSLTALQPFINQFQAYVSSLLKNELGSVKREREDDDEPASLDF
# B7: GPIHBP1 21-151 (Homo sapiens, UniProt Q8IV16); sequence looked up; chain QTQQEEEEEDEDHGPDDYDEEDEDEVEEEETNRLPGGRSRVLLRCYTCKSLPRDERCNLTQNCSHGQTCTTLIAHGNTESGLLTTHSTWCTDSCQPITKTVEGTQVTMTCCQSSLCNVPPWQSSRVQDPTG
# B8: ATF4 276-351 C310A (Homo sapiens, UniProt P18848); sequence looked up; chain EKLDKKLKKMEQNKTAATRYRQKKRAEQEALTGEAKELEKKNEALKERADSLAKEIQYLKDLIEEVRKARGKKRVP
# B9: MED2/PGD1 four-helix bundle 1-431 (Saccharomyces cerevisiae); chain 1 MVVQNSPVSSVHTANFSERGSNTRTMTYKNKLTVCFDDILKVGAEMMMQQQLKNVQLDSYLVNGFSQSQQKLLKEKVKLFHGILDDLETSLSQSSSYLETLTALGKEKEKEREEAEKKRAEQENMRKVREQEELKKRQELEEASQQQQLQQNSKEKNGLGLNFSTTAPANTTDANGSKENYQELGSLQSSSQTQLENANAANNGAAFSPLTTTRIQSQQAQPSDVMFNDLNSMDISMFSGLDSTGFDSTAFNATVDETKGFDDNDSGNNYNDINISSIENNINNNINSTKNGKDNNNESNKNNNGDEKNKNNNEDNENNNNSSEKNNNNNNNNNNNNDDNGNNNNNNSGNDNNNTTNNDSNNKNNSITTGNDNENIVNNDLPTTVVSNPGDNPPPADNGEEYLTLNDFNDLNIDWSTTGDNGELDLSGFNI; chain 2 MDSIIPAGVKLDDLQVILAKNENETRDKVCKQINEARDEILPLRLQFNEFIQIMANIDQEGSKQADRMAKYLHIRDKILQLNDRFQTLSSHLEALQPLFSTVPEYLKTADNRDRSFQLLEPLSTYNKNGNAVCSTATVVSTNHSAAASTPTTTATPHANPITHAHSLSNPNSTATMQHNPLAGKRGPKSGSTMGTPTVHNSTAAAPIAAPKKPRKPRQTKKAKAQAQAQAQAQAQVYAQQSTVQTPITASMAAALPNPTPSMINSVSPTNVMGTPLTNMMSPMGNAYSMGAQNQGGQVSMSQFNGSGNGSNPNTNTNSNNTPLQSQLNLNNLTPANILNMSMNNDFQQQQQQQQQQQQPQPQYNMNMGMNNMNNGGKELDSLDLNNLELGGLNMDFL
# B10: ATG9 2-318 (Saccharomyces cerevisiae, UniProt Q12142); sequence looked up; chain ERDEYQLPNSHGKNTFLSRIFGLQSDEVNPSLNSQEMSNFPLPDIERGSSLLHSTNDSREDVDENDLRVPESDQGTSTEEEDEVDEEQVQAYAPQISDGLDGDHQLNSVTSKENVLETEKSNLERLVEGSTDDSVPKVGQLSSEEEEDNEFINNDGFDDDTPLFQKSKIHEFSSKKSNTIEDGKRPLFFRHILQNNRPQRDTQKLFTSSNAIHHDKDKSANNGPRNINGNQKHGTKYFGSATQPRFTGSPLNNTNRFTKLFPLRKPNLLSNISVLNNTPEDRINTLSVKERALWKWANVENLDIFLQDVYNYYLGNG
# B11: POMP (Homo sapiens, UniProt Q9Y244); chain MNARGLGSELKDSIPVTELSASGPFESHDLLRKGFSCVKNELLPSHPLELSEKNFQLNQDKMNFSTLRNIQGLFAPLKLQMEFKAVQQVQRLPFLSSSNLSLDVLRGNDETIGFEDILNDPSQSEVMGEPHLMVEYKLGLL
# B12: ALAS2 54-587 (Homo sapiens, UniProt P22557); sequence looked up; chain KATKAGGDSPSWAKGHCPFMLSELQDGKSKIVQKAAPEVQEDVKAFKTDLPSSLVSVSLRKPFSGPQEQEQISGKVTHLIQNNMPGNYVFSYDQFFRDKIMEKKQDHTYRVFKTVNRWADAYPFAQHFSEASVASKDVSVWCSNDYLGMSRHPQVLQATQETLQRHGAGAGGTRNISGTSKFHVELEQELAELHQKDSALLFSSCFVANDSTLFTLAKILPGCEIYSDAGNHASMIQGIRNSGAAKFVFRHNDPDHLKKLLEKSNPKIPKIVAFETVHSMDGAICPLEELCDVSHQYGALTFVDEVHAVGLYGSRGAGIGERDGIMHKIDIISGTLGKAFGCVGGYIASTRDLVDMVRSYAAGFIFTTSLPPMVLSGALESVRLLKGEEGQALRRAHQRNVKHMRQLLMDRGLPVIPCPSHIIPIRVGNAALNSKLCDLLLSKHGIYVQAINYPTVPRGEELLRLAPSPHHSPQMMEDFVEKLLLAWTAVGLPLQDVSVAACNFCRRPVHFELMSEWERSYFGNMGPQYVTTYA
# B13: TAF4 Q1 domain, 428-492 (Homo sapiens, UniProt O00268); chain GSHMTPTVLAPRLPQPPQNPTNIQNFQLPPGMVLVRSENGQLLMIPQQALAQMQAQAHAQPQTTMAPRP
# B14: TIM9 1-87 (Saccharomyces cerevisiae, UniProt O74700); chain MDALNSKEQQEFQKVVEQKQMKDFMRLYSNLVERCFTDCVNDFTTSKLTNKEQTCIMKCSEKFLKHSERVGQRFQEQNAALGQGLGR
# B15: HY5 (Arabidopsis thaliana, UniProt O24646); sequence looked up; chain MQEQATSSLAASSLPSSSERSSSSAPHLEIKEGIESDEEIRRVPEFGGEAVGKETSGRESGSATGQERTQATVGESQRKRGRTPAEKENKRLKRLLRNRVSAQQARERKKAYLSELENRVKDLENKNSELEERLSTLQNENQMLRHILKNTTGNKRGGGGGSNADASL
# UniProt Q8TCE6, sequence (whole entry, looked up): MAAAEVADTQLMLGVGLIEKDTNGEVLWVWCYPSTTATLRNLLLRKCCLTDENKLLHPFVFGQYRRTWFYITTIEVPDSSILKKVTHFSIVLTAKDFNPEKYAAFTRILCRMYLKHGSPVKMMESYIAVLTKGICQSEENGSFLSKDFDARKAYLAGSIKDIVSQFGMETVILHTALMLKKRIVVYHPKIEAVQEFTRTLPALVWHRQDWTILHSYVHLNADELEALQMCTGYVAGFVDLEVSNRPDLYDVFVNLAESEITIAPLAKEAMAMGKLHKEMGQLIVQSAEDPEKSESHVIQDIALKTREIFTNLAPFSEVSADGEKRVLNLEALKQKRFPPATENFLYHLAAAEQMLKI
# UniProt Q9P3A7, sequence (whole entry, looked up): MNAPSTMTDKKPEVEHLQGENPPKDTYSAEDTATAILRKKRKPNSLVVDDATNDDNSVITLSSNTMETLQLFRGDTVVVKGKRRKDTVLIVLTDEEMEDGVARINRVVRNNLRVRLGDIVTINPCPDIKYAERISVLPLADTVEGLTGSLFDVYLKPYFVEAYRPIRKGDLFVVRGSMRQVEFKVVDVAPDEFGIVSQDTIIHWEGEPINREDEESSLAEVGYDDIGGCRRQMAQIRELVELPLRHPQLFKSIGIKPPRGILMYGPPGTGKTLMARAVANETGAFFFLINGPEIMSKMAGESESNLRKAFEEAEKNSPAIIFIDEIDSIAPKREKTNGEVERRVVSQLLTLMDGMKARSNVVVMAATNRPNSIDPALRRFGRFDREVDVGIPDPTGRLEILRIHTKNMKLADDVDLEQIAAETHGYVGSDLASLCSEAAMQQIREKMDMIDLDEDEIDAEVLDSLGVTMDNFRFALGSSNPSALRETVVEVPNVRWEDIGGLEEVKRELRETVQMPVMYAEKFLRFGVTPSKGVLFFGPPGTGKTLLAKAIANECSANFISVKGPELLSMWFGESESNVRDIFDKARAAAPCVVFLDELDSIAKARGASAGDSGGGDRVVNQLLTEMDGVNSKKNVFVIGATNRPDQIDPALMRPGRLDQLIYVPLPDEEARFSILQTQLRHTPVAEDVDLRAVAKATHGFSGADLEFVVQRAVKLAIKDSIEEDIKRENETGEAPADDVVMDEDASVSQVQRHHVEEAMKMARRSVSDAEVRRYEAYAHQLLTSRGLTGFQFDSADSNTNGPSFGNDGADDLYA
# UniProt P11151, sequence (whole entry, looked up): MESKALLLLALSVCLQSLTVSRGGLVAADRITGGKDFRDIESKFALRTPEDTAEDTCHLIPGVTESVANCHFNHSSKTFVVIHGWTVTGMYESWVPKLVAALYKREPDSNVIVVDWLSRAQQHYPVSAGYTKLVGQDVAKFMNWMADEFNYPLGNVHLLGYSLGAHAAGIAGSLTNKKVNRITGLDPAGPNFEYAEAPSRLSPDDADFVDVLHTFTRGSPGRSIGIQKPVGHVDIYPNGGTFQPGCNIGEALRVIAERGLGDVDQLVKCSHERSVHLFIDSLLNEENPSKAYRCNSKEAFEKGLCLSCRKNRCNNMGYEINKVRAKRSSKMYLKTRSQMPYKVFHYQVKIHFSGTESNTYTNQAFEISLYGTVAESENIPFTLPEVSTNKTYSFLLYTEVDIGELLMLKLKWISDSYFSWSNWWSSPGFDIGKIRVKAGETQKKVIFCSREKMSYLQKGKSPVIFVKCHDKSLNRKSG
# UniProt P49720, sequence (whole entry, looked up): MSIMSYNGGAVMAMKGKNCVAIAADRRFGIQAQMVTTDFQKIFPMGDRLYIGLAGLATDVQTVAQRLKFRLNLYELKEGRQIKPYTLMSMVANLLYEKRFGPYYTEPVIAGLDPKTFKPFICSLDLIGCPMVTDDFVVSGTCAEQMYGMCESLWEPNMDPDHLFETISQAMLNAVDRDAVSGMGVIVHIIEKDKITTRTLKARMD
# UniProt P25454, sequence (whole entry, looked up): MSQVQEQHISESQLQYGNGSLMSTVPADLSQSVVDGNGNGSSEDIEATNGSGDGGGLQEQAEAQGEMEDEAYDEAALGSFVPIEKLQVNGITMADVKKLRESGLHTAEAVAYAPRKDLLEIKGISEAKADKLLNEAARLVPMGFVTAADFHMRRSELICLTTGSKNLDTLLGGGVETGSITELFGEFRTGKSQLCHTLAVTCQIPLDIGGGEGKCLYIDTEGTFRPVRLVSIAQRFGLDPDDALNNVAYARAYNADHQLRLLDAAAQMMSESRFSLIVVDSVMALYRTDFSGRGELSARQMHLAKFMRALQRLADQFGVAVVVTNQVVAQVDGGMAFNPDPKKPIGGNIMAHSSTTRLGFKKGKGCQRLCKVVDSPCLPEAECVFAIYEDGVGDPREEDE
# UniProt P39705, sequence (whole entry, unmodified, looked up): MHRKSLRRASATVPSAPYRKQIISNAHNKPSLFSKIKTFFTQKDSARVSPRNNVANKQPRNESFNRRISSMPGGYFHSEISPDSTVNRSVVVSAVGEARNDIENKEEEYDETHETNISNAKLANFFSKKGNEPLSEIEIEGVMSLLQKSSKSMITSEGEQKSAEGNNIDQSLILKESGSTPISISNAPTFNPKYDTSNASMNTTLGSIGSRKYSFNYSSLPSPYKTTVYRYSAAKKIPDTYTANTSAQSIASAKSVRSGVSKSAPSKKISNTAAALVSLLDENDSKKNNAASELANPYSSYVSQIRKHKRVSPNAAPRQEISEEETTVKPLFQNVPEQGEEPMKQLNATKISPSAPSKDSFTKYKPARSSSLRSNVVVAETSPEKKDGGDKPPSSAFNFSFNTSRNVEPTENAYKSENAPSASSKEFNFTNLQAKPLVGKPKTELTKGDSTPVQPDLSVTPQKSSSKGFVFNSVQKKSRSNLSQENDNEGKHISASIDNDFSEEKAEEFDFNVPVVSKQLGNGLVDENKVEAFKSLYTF
# UniProt P30043, sequence (whole entry, looked up): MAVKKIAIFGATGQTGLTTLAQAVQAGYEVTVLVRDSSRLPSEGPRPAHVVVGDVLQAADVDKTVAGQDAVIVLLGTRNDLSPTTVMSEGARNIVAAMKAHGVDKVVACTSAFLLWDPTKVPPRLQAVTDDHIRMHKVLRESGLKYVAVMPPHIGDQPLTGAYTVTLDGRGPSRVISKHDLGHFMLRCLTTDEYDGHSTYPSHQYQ
# UniProt P37449, sequence (whole entry, looked up): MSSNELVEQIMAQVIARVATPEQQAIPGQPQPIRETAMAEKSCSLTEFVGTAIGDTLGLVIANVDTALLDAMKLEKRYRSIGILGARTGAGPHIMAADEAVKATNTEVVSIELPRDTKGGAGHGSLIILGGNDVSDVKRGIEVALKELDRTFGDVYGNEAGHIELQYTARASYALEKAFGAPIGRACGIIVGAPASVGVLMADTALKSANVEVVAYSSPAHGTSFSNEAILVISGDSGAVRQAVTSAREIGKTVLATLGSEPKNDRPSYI
# UniProt Q9LET0, sequence (whole entry, looked up): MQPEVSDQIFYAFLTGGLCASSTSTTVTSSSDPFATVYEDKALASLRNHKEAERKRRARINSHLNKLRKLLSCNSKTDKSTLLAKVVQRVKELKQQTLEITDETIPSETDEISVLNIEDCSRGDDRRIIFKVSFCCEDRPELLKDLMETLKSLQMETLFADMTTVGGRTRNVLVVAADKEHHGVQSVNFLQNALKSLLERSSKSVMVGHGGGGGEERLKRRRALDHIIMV
Molecule,partner,test,system,conditions,binding
B1 (PduE),"PduB (Salmonella enterica Typhimurium LT2, UniProt P37449)",cross-linking,,,binds
B2,"portal protein dodecamer (Staphylococcus phage 80alpha, UniProt A4ZFA8)",cryo-EM,,,binds
"POL12 (Saccharomyces cerevisiae, UniProt P38121)",POL1,cryo-EM,,,binds
B3 (CCDC22 280-446),"DENND10 (Homo sapiens, UniProt Q8TCE6)",SEC,,,binds
B4 (SKI7 1-235),"SKI3 (Saccharomyces cerevisiae, UniProt P17883)",cryo-EM,,,binds
B5 (nlpI),"protein N130K/N225K/Q284R (Escherichia coli, UniProt P37648)",cryo-EM,,,binds
"MEELQDDYEDMMEENLEQEEYEDPDIPESQ (SLC4A1 1-30 (Homo sapiens, UniProt P02730); sequence looked up)","BLVRB (Homo sapiens, UniProt P30043)",NMR titration,peptide,,binds
"DVLLLDVTPLS (HSPA9 interdomain linker, 434-444 (Homo sapiens))","HSPA9 NBD 52-431 R126W (Homo sapiens, UniProt P38646)",BLI,peptide,together with: ADP,binds
"KKISNTAAALVSLLKEND (Nup60 267-284 D281K (Saccharomyces cerevisiae, UniProt P39705); sequence looked up)","MLP1 382-620 (Saccharomyces cerevisiae, UniProt Q02455)",pull-down,peptide,,binds
"moe1 (Schizosaccharomyces pombe, UniProt O94236)","cdc48 (Schizosaccharomyces pombe, UniProt Q9P3A7)",far-Western overlay,,,binds
B6 (Pri1),POL1,mass photometry,,,binds
"NUP62 (Homo sapiens, UniProt P37198)","FUS (Homo sapiens, UniProt P35637)",pull-down,,,binds
B7 (GPIHBP1 21-151),"LPL mature (Bos taurus, UniProt P11151)",HDX-MS,,,binds
B8 (ATF4 276-351 C310A),"ATF4 1-275 (Homo sapiens, UniProt P18848)",NMR titration,,,binds
B9,"SIN4 1-974 (Saccharomyces cerevisiae, UniProt P32259)",cryo-EM,,,binds
"RAD51 (Saccharomyces cerevisiae, UniProt P25454)",MLH1/MLH3 (Saccharomyces cerevisiae),co-IP,,,binds
B10 (ATG9 2-318),"ATG17 (Saccharomyces cerevisiae, UniProt Q06410)",pull-down,,,binds
B11 (POMP),"PSMB3 (Homo sapiens, UniProt P49720)",cryo-EM,,,binds
B12 (ALAS2 54-587),"CLPX/CLPP CLPP 14-mer, CLPX hexamer, ATPγS-bound 65-633 (Homo sapiens)",co-IP,,,binds
"B13 (TAF4 Q1 domain, 428-492)","T1, CREB1 160-280 (Rattus norvegicus)",NMR,,,binds
B14 (TIM9 1-87),"TIM10 (Saccharomyces cerevisiae, UniProt P87108)",SEC,,,binds
B15 (HY5),"BHLH107 (Arabidopsis thaliana, UniProt Q9LET0)",pull-down,,,binds
